Results gathered from unrelated publications.
Compare with care: the assays were run in different laboratories.
B1: enzyme (Manihot esculenta, UniProt Q41172); chain TDDDDDNIPDDFSRKYFPDDFIFGTATSAYQIEGEATAKGRAPSVWDIFSKETPDRILDGSNGDVAVDFYNRYIQDIKNVKKMGFNAFRMSISWSRVIPSGRRREGVNEEGIQFYNDVINEIISNGLEPFVTIFHWDTPQALQDKYGGFLSRDIVYDYLQYADLLFERFGDRVKPWMTFNEPSAYVGFAHDDGVFAPGRCSSWVNRQCLAGDSATEPYIVAHNLLLSHAAAVHQYRKYYQGTQKGKIGITLFTFWYEPLSDSKVDVQAAKTALDFMFGLWMDPMTYGRYPRTMVDLAGDKLIGFTDEESQLLRGSYDFVGLQYYTAYYAEPIPPVDPKFRRYKTDSGVNATPYDLNGNLIGPQAYSSWFYIFPKGIRHFLNYTKDTYNDPVIYVTENGVDNYNNESQPIEEALQDDFRISYYKKHMWNALGSLKNYGVKLKGYFAWSYLDNFEWNIGYTSRFGLYYVDYKNNLTRYPKKSAHWFTKFLNISVNANNIYELTSKDSRKVGKFYVM
B2: enzyme (Pseudomonas aeruginosa, UniProt Q9HWT7); chain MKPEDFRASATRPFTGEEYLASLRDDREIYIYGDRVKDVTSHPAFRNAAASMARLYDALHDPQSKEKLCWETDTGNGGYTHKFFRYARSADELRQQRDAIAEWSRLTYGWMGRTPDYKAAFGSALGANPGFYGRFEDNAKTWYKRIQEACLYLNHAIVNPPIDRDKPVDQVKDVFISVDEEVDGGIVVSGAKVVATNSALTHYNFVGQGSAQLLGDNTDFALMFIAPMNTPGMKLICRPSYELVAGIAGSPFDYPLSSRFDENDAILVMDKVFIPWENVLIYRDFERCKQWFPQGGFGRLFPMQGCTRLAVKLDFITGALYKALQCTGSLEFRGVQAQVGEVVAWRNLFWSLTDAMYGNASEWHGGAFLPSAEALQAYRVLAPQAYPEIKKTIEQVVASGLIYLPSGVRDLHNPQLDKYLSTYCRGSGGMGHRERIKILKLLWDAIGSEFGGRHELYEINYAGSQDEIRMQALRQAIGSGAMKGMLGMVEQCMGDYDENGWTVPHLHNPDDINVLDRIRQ
B3: bglA A17S (Acetivibrio thermocellus, UniProt P26208); chain MSKITFPKDFIWGSATSAYQIEGAYNEDGKGESIWDRFSHTPGNIADGHTGDVACDHYHRYEEDIKIMKEIGIKSYRFSISWPRIFPEGTGKLNQKGLDFYKRLTNLLLENGIMPAITLYHWDLPQKLQDKGGWKNRDTTDYFTEYSEVIFKNLGDIVPIWFTHNEPGVVSLLGHFLGIHAPGIKDLRTSLEVSHNLLLSHGKAVKLFREMNIDAQIGIALNLSYHYPASEKAEDIEAAELSFSLAGRWYLDPVLKGRYPENALKLYKKKGIELSFPEDDLKLISQPIDFIAFNNYSSEFIKYDPSSESGFSPANSILEKFEKTDMGWIIYPEGLYDLLMLLDRDYGKPNIVISENGAAFKDEIGSNGKIEDTKRIQYLKDYLTQAHRAIQDGVNLKAYYLWSLLDNFEWAYGYNKRFGIVHVNFDTLERKIKDSGYWYKEVIKNNGF
Sequence of UniProt A0A0K8P6T7 (whole entry, looked up): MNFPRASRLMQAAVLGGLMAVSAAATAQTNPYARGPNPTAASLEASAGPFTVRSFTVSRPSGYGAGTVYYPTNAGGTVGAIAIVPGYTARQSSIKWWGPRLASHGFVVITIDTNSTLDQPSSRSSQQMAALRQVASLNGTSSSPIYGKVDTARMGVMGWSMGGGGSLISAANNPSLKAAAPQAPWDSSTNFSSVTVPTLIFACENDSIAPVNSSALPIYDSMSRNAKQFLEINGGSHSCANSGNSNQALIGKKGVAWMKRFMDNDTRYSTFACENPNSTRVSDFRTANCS

With `enzyme (Pseudideonella sakaiensis, UniProt A0A0K8P6T7)` the Km was 8100 µM (O=C(OCCO)c1ccc(C(=O)OCCO)cc1; steady-state kinetics; 30 °C).
`enzyme (Aptenodytes forsteri, UniProt A0A087QWN2)` gave a Km of 0.2 µM (C[C@]12CCC(=O)C=C1CC[C@@H]1[C@@H]2CC[C@]2(C)C(=O)CC[C@@H]12; steady-state kinetics; pH 7.4).
`rCR L137V (Lodderomyces parapsilosis)` gave a Km of 360 µM (CC(=O)c1ccc(Cl)cc1; steady-state kinetics; pH 7, 30 °C, together with: NADH 0.5 mM).
For `enzyme (UniProt I4BZH5)`, the Km was 322 µM (N=C(N)NCCC[C@H](N)C(=O)O; steady-state kinetics; pH 8, 30 °C).
With `B1 (enzyme)` the Km was 6630 µM (CC(C)(C#N)O[C@@H]1O[C@H](CO)[C@@H](O)[C@H](O)[C@H]1O; steady-state kinetics; pH 6, 30 °C, not purified).
For `B2 (enzyme)`, the Km was 264 µM (O=C(O)/C=C/c1ccc(O)cc1; steady-state kinetics; pH 8, 37 °C, together with: NADH 1 mM, FAD 10 µM, HpaC).
With `Cj1438c (Campylobacter jejuni, UniProt Q0P8H6)` the Km was 260 µM (NCCOP(=O)(O)O; steady-state kinetics; pH 8, 25 °C, apparent).
`insulin human` has a fold change of 1.01 (item: NLGN1 mRNA; EcoHIV-infected mouse, brain; i.p., dose not given; reference: PBS).
With `B3 (bglA A17S)` the Km was 3040 µM (O=[N+]([O-])c1ccc(O[C@@H]2O[C@H](CO)[C@@H](O)[C@H](O)[C@H]2O)cc1; steady-state kinetics; pH 5.5, 60 °C).
With `ALS1 Q169N/V170Q (Oryza sativa)` the Km was 20000 µM (CC(=O)C(=O)O; steady-state kinetics; pH 7.5, 37 °C, together with: FAD, MgCl2, TPP).
`GcL (Parageobacillus, UniProt A0A023DFE8)` gave a Km of 581 µM (CCCC(=O)N[C@H]1CCOC1=O; steady-state kinetics; pH 8.3, together with: CoCl2 0.2 mM).
